Assay results collected from several papers.
pIC50: −log10 of the molar value.
Chain of UniProt P04062 (whole entry, unmodified, looked up): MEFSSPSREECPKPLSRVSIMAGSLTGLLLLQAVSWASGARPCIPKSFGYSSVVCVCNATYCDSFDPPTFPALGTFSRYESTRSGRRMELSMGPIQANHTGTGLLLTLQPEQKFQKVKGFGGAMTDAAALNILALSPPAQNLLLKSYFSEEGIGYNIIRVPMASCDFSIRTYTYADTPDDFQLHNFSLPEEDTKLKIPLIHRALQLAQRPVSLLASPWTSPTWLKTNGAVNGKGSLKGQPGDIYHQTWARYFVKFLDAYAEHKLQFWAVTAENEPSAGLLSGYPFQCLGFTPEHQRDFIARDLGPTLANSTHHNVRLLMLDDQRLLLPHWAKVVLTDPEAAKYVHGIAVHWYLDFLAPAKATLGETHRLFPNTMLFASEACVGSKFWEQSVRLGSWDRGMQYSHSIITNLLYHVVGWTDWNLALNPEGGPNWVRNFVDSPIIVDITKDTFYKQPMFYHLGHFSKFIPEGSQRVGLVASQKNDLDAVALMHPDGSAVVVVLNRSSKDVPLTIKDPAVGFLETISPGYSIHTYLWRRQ

SMILES = COc1ccc(CN2CCC(F)(F)C(COc3ccc(F)c(C)c3)C2)cc1F (stereo not drawn); test = metabolic stability; system = mouse, liver microsomes; measurement = scaled CLint; result = 705 mL/min/kg
SMILES = Cc1sc2c(c1C)C(c1ccc(Cl)cc1)=N[C@@H](CC(=O)NCCCCCCCCC(=O)N1CCN(C(=O)c3cc(Cc4n[nH]c(=O)c5ccccc45)ccc3F)CC1)c1nnc(C)n1-2; test = metabolic stability; system = mouse, liver microsomes; measurement = microsomal CLint; result = 307 µL/min/mg
SMILES = CC(C)n1ncc2c(C(=O)NCCN(C)C)cc(C3CC3)nc21; test = metabolic stability; system = mouse, liver microsomes; measurement = microsomal CLint; result = 65.2 µL/min/mg
SMILES = C=C(C)C1CC=C(CN2CCN(Cc3ccccc3)CC2)CC1 (stereo not drawn); tested on = Trypanosoma cruzi; test = reporter mRNA translation, inhibitor, refers to: capped polyadenylated Renilla luciferase mRNA; system = cell-free extract; setting = concentration not given; scale = baseline: control RNA; measurement = relative translation; result = 102%
SMILES = CC(C)n1ncc2c(C(=O)NC3(C)CNC3)cc(C3CC3)nc21; test = metabolic stability; system = mouse, liver microsomes; measurement = scaled CLint; result = < 38 mL/min/kg
SMILES = CC(C)(O)Cn1nc(-c2ccccc2)c2c(Cl)c(-c3ccccc3)nnc21; test = metabolic stability; system = mouse, liver microsomes; setting = 1 µM; measurement = microsomal CLint; result = 523 µL/min/mg
SMILES = CC(C)n1ncc2c(C(=O)NCCN)cc(C3CC3)nc21; test = metabolic stability; system = mouse, liver microsomes; measurement = microsomal CLint; result = < 9.6 µL/min/mg
SMILES = C=CC(=O)N1CCCC(n2c(=O)c3ncccc3n(Cc3ccc(Oc4ccccc4)cc3)c2=O)C1 (stereo not drawn); test = metabolic stability; system = male CD-1 mouse, hepatocytes; setting = 1 µM; measurement = hepatocyte CLint; result = 83.5 µL/min/10⁶ cells
SMILES = Cc1nc2ccc(S(=O)(=O)n3nc(SCc4ccc(Cl)cc4)nc3N)cc2s1; test = metabolic stability; system = mouse, liver microsomes; setting = 1 µM, pH 7.4; measurement = microsomal CLint; result = 303 µL/min/mg
SMILES = Fc1ccc(OCC2CN(Cc3ncc4ccccn34)CCC2(F)F)cc1F (stereo not drawn); test = metabolic stability; system = mouse, liver microsomes; measurement = scaled CLint; result = 2550 mL/min/kg
SMILES = Br.CCCCCCn1c2c(c(=N)c3c1CCC3)CCC2; tested on = Trypanosoma cruzi; test = reporter mRNA translation, inhibitor, refers to: capped polyadenylated Renilla luciferase mRNA; system = cell-free extract; setting = concentration not given; scale = baseline: control RNA; measurement = relative translation; result = 94.4%
SMILES = CCC(CC)CNC(=N)NC(=N)NCCCCCCNC(=N)NC(=N)NCC(CC)CC; test = metabolic stability; system = mouse, liver microsomes; setting = 2 µM; measurement = microsomal CLint; result = 21.4 µL/min/mg
SMILES = O=C(Nc1cc(-c2ccnc3[nH]ccc23)c(Cl)cn1)[C@H]1CCC[C@@H](NC(=O)C(F)(F)F)C1; test = metabolic stability; system = mouse, liver microsomes; measurement = microsomal CLint; result = 64.2 µL/min/mg
SMILES = CNCCNC(=O)c1cc(C2CC2)nc2c1cnn2C(C)C; test = metabolic stability; system = mouse, liver microsomes; measurement = scaled CLint; result = 450 mL/min/kg
SMILES = O=C(c1ccc(C23CC(S(F)(F)(F)(F)F)(CO2)C3)cc1)N1CCN(c2ncccn2)CC1; test = metabolic stability; system = mouse, liver microsomes; measurement = microsomal CLint; result = 119 µL/min/mg
SMILES = COc1ccccc1-c1ccc(COCCCCCN2C[C@H](O)[C@@H](O)[C@H](O)[C@H]2CO)cc1; tested on = GBA1 (Homo sapiens, UniProt P04062, R534H); test = inhibitor, 4MU-β-D-glucopyranoside; setting = with: 4MU-β-D-glucopyranoside; measurement = pIC50; result = 6.22
SMILES = CC(=O)Nc1cc(Nc2cc(NC3CC3)n3ncc(C#N)c3n2)ccc1N1CCOCC1; test = metabolic stability; system = male CD-1 mouse, hepatocytes; setting = 1 µM, serum-free; measurement = scaled CLint; result = 330 mL/min/kg
SMILES = Fc1ccc(OCC2CN(Cc3ncc4ccccn34)CCC2(F)F)cc1 (stereo not drawn); test = metabolic stability; system = mouse, liver microsomes; measurement = scaled CLint; result = > 5930 mL/min/kg
SMILES = C/C(=N\OCCN1CCCC1)c1ccc(C(F)(F)F)cc1; test = metabolic stability; system = mouse, liver microsomes; measurement = scaled CLint; result = 544 mL/min/kg
SMILES = CC(C)n1ncc2c(C(=O)NC[C@@H](C)N)cc(C3CC3)nc21; test = metabolic stability; system = mouse, liver microsomes; measurement = microsomal CLint; result = < 9.6 µL/min/mg
SMILES = COc1ccc(CN2CCC(F)(F)C(COc3ccc(F)c(F)c3)C2)cc1F (stereo not drawn); test = metabolic stability; system = mouse, liver microsomes; measurement = scaled CLint; result = 742 mL/min/kg
